Measurements from different studies.
Numbered parts are unrelated; each lists some results of a single study.

Study 1
Target: RNA binding protein fox-1 homolog 2, RRM domain, GST-SBP tag (RBFOX2, Homo sapiens, UniProt O43251-10, residues 100-194)
Technique: RNA Bind-n-Seq
Form: RNA
Sample: in vitro
Concentration: 365 nM
Setting: natural RNA segment, single round, ends assumed
Baseline: no-protein control
Direction: higher = stronger binding
All sequences stand within: GGGAGUUCUACAGUCCGACGAUC … UGGAAUUCUCGGGUGCCAA
Residues (chain): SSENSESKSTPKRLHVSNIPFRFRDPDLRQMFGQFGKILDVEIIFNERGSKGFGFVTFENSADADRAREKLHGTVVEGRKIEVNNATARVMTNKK
Sequence | RBNS enrichment (R)
UUCGCAUGCUGAGUACUGGACCUCGGACCAGAGCCAUGUAAGAAAAGGCCUGUUCCCUGGAAGCCCAAAGGACUCUGCAUUGAGGGUGGGGGUAAUUGUCUCUUGGUGGG | 1.68
ACUGAGCUGGAGCCCGCCUGGAGAGACAGACACGUGUGAGUGGUCAGGCAUCUUCCCUUCACUCAAGCUUGGCUGCUUUCCUAGAUCCACACUUUCAAAGAGAAACCCCU | 0.365
CAGUAUUUCACAGUGGACAUUUCACAGUAUUUCACAGUCUUGCCUGUGGCCUGCUGGCUGCAUGCUGUAUCAGCCACAACCUGGCAAGUGGCCUUCUGACAGGUUUCUUU | 2.03
CUUGAAAAGACUUAUUACAGUAGCUGGCACAUAAAGACUUGAUAGUAGUUUAUAUGGAUGCUAUCUCAUAUUAGCAUAUAUGGAAUUAAUAGUGUAUCACUAUACUUUUU | 0.589
CGAGUGCCACAGGCAUUCUGCAUUGCUCUACUCUUAGGUUUGUGUGUGUGAUCCUUCCCCUCCCUGUCGCCCACUCCUCCCUCCUCUGGCUAUCCUACCCUGUCUGUGGG | 0.579
UUAUGAAUGGGUGUAAUUAGGAAAUACUUCUCAUCUGACAGCUACAAAUAACUAAGUUUGGAGGUAUUUUCACUCUAUAUGAAUAAAUAUUUUUCCAUAAAAUAGUUGUG | 0.398
GGAUCUUCCCACUUUGCCACUGGAUGACUUUGGAUGGGUCACUUGUCCUCAGUUUUUCCUAGUCAUAAUGUCAUACGAACCUAAAGAAUAUGAAUGGAUUAAAUGUUAAA | 0.802
CCACAUGUGCACAGAGCCAGCUGCAGAGGGCACCACAAGGGCACCUUAACCAGCUCCUGAUCUCAAGAACACUAAAAGGCUAGCCGUUGUCUGUCUAGAGUGAAUACUUC | 0.229

Study 2
Target: Sal-like protein 4, full length isoform B (SALL4, Homo sapiens, UniProt Q9UJQ4-2, residues 1-616)
Technique: universal PBM
Form: double-stranded DNA, one strand shown
Sample: in vitro
Concentration: not given
Setting: 8-mer, flanks averaged, mean of replicates
Direction: higher = stronger binding
Sequence | E-score
ACTTTATA | 0.349
CGCCTAAG | -0.227
AGTAGTCG | -0.162
AGGCTGTA | 0.139
ACAGTGAT | 0.0449
ATAACTTG | 0.271
CGTTTAAG | 0.0297
CGAGATTA | -0.00644
AATCGCCA | -0.0738
CCATTGAA | -0.0285
ACATGCTG | -0.0881
CTTATGGA | 0.176
CTTACACA | 0.0786
TGTGTTAA | 0.211
CTGAAGCC | -0.253
ACGAGGGG | -0.235

Study 3
Target: Fragile X messenger ribonucleoprotein 1, C-terminal low-complexity region (Fmr1, Mus musculus, UniProt P35922)
Technique: RNA Bind-n-Seq
Form: RNA
Sample: in vitro
Concentration: 200 nM
Setting: whole 134-nt RNA, ends assumed
Added: 150 mM LiCl
Baseline: input library
Direction: higher = stronger binding
Library: 7-deaza-guanosine replaces G
All sequences stand within: GGGAGUUCUACAGUCCGACGAUC … UGGAAUUCUCGGGUGUCAAGG
Sequence | log2 enrichment
UGGGAGGUGGAUUUUGUUUAUUUUUUUUGCUCAUUUCCAGGGGUGGGAAUUUUUUUUUAAUAUGUGUCAUGAAUAAAGUUGUUUUUGAAA | 1.29
ACCAUGCAGGUGGGCAUCUUUGGGAAGUGGGGCAAGGGGGGGAUAGGGAGGGGGGUAACACUUGGGGAACAGGUGGUCCCAGGUCGUUUC | 1.61
GCAGGAAGUAAAAACAAAUCGAAAUGCUUCGGAUAGUGGCAGGGGUGGGGGUUGCUAAGGAAAGGGUGGGAUGGGAGUGGGUAAAGAGUU | 1.39
CUCAAGUCCUGUGCUACACAUCGUAUGUACCGAAUCGGGUGGGAGGGAAAGGGAAAGUAUUAUGUUACGCCGUUCGGAUCUGCACUUCCA | 0.0744
GUCCUGUGCUACACAUCGUAUGUACCGAAUCGGGGCCCCCGGGCCCCCGGCCCCCGGGGAAAGUAUUAUGUUACGCCGUUCGGAUCUGCA | -1.71
AUUAAGGUCACCGUUGCAGGCCUGGCUGGAAAAGACCCAGUACAGUGUAGCCGUGAUGUGGUCAUUUGUCCUGAUGCCAGCCUUGAAGAU | -2.5
AAGUCCUGUGCUACACAUCGUAUGUACCGAAUCGGGUUUGGGGUUUGGGGUUUGGGGAAAGUAUUAUGUUACGCCGUUCGGAUCUGCACU | -1.51
UAGCAUAUUGCCUUGUUCACUACCGAGGAGAUGAGAAGAUUAAAGGUUUCAUAUGGGAUCUCAUUACUCCAACUGAAGAUGGACAGACAC | 1.02

Study 4
Target: Phosphate system positive regulatory protein PHO4, full length, GST-tagged (PHO4, Saccharomyces cerevisiae, UniProt P07270, residues 1-312)
Technique: competition protein-binding microarray
Form: double-stranded DNA, one strand shown
Sample: in vitro
Concentration: 2 µM
Setting: whole 60-bp probe, lowest competitor level
Added: Cbf1 competitor, 0.05 µM
Direction: higher = stronger binding
All sequences stand within: … GTCTTGATTCGCTTGACGCTGCTG
Residues (chain): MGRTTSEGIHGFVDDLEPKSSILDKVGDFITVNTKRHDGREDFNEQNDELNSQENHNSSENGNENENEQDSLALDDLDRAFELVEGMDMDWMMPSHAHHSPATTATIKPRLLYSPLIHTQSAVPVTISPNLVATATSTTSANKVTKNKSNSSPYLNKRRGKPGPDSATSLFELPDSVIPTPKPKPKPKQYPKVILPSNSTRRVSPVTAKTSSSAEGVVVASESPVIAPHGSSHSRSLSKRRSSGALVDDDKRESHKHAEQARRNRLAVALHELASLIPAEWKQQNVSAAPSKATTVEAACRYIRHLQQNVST
Sequence | fluorescence intensity
CTTCTGTAAATTTGCCACGTGGGTGGACGCGCCCCG | 18200 a.u.
CTAACGAAGGTTTGCCTCGTGGGTGACAAGCCAAGT | 12300 a.u.
AACCGTACTTGATTTCACCTGCGGGCTTCAAGTCGG | 3110 a.u.
AAATTACTAAGTTGGATTGTGGGTGACGCCGTATGA | 4110 a.u.
CCTTTGAAGTATTTTCTCGTGGAAGCAGCCTCGTAA | 4970 a.u.
AATTGTGCCAAAAATCACCTGTTATGGCTGACTTGA | 3600 a.u.
CATCATCATCTTCACCACGTGCAAAAAACCTTGTGC | 14200 a.u.
AGGCAGACAAGCTGTCATGTGTTCTGATTATGCCAT | 7820 a.u.
CTTTCCCGATCTTTTCACGTGAATTTAGCACATTTG | 11200 a.u.
TGTGTAACAGAACCGGACGTGCTTTAGGCTGATGAA | 5200 a.u.
CTAACGAAGGTTTGGGAAGTGGGTGACAAGCCAAGT | 3670 a.u.
ATGAAAATGAAGAAATGCGTGATGGGAAATTACGGG | 6600 a.u.
GTTTCGCCAGTTTCACTCATGACAAGTCTGCCAGTT | 3300 a.u.
AAATTACTAAGTTGCTAGGTGGGTGACGCCGTATGA | 3940 a.u.
GACCAGGAAAAAGATAGCGTGCAAAGCAGGACGATA | 5570 a.u.
CCGGACTTCCATCGGCACGTGGACCTAAAATTCTTT | 18700 a.u.
AGATTTTCAAAATCGCATGTGATATAGTCGAAAGGG | 8830 a.u.

Repeated from above (study 2):
Sequence | E-score
AGGCTGTA | 0.139
CTGAAGCC | -0.253
AATCGCCA | -0.0738
CTTATGGA | 0.176
